Literature values, collected from citations in different studies.
Protocols differ between the studies behind these lines. ± marks the error that the study gave.
Chain of UniProt Q9P289 (whole entry, looked up): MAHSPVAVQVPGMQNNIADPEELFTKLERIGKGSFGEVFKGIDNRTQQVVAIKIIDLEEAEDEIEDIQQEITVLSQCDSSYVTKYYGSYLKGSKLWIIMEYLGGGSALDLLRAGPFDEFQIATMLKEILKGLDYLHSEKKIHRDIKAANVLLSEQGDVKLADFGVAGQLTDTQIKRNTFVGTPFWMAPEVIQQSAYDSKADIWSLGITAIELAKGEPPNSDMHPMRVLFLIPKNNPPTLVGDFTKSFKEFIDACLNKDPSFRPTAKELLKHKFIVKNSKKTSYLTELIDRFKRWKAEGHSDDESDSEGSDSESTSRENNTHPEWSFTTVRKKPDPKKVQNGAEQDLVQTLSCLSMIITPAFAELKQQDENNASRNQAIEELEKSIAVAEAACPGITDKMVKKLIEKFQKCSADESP

SMILES | tested on | assay | test system | conditions | how to read | quantity | value
Fc1ccc([C@@H]2CCNC[C@H]2COc2ccc3c(c2)OCO3)cc1 | sigma-2 receptor |  |  | literature value |  | IC50 | 23000 nM
O=C(O)c1cc(N2N=C(C(F)(F)F)/C(=C/c3ccc(-c4ccccc4)o3)C2=O)ccc1Cl | MAO-A | inhibitor |  |  |  | IC50 | 7900 nM
NCCC(Oc1ccc(C(F)(F)F)cc1)c1ccccc1 (centres unmarked) | sigma-1 receptor |  |  | literature value |  | IC50 | 2400 nM
FC(F)(F)c1ccc(Nc2ccnc3nc(-c4ncccc4C(F)(F)F)cnc23)cc1 | TRPV1 | calcium flux, antagonist | HEK293 | with: capsaicin |  | IC50 | 0.23 nM
COc1cccc(-c2cc(F)ccc2[C@H]2Cc3nc(N)nc(C)c3C(=O)N2)n1 | Hsp90β | inhibitor |  |  |  | IC50 | 0.8 nM
CN1CCC[C@@H]1COc1nc(N2CCNCC2)c2cnc(-c3cc(O)cc4ccccc34)c(F)c2n1 | KRAS |  |  |  |  | IC50 | 980 nM
O=C(Nc1ccc(C(F)(F)F)cc1)c1ncc(-c2ncccc2C(F)(F)F)cn1 | TRPV1 | calcium flux, antagonist | HEK293 | with: capsaicin |  | IC50 | 42 nM
Cc1ccc2nc(NC(=O)CSc3nc4c(c(=O)n3-c3ccc(F)cc3)SCC4)sc2c1 | casein kinase 1 delta | inhibitor |  |  |  | IC50 | 1890 nM
CC1(C)S[C@@H]2[C@H](NC(=O)[C@H](N)c3ccccc3)C(=O)N2[C@H]1C(=O)O | Klebsiella oxytoca |  | clinical isolate RKI-No_609/16 |  |  | MIC | > 16 µg/mL
Cc1[nH]c(/C=C2\C(=O)Nc3ccc(C(=O)N[C@H](C)c4ccc(F)cc4)cc32)c(C)c1NC(=O)CCl | GRK2 | kinase activity, inhibitor |  |  |  | IC50 | 12000 nM
O=C(O)c1cc(O)c(O)c(O)c1 | xanthine oxidase | inhibitor |  |  |  | IC50 | 200000 ± 320 nM
CN1C(C(=O)Nc2ccccn2)=C(O)c2sc(Cl)cc2S1(=O)=O | NR4A3 (NOR-1) | inverse agonist, cellular |  |  |  | IC50 | 24000 ± 3000 nM
Cc1c(C#N)cccc1[C@@H](C)Nc1nnc(C)c2cnc(N3CCOCC3)cc12 | HOP-92 | ERK phosphorylation, In-Cell Western, refers to: phospho-ERK |  |  |  | IC50 | 35.4 ± 6.6 nM
CC(C)=CCC/C(C)=C/CNCCNC1C2CC3CC(C2)CC1C3 (centres unmarked) | Mycobacterium tuberculosis cis-farnesyl diphosphate synthase | enzyme activity, inhibitor |  |  |  | IC50 | ≥ 50000 nM
CCN(CC)CCCCNc1ncc2cc(-c3cc(OC)cc(OC)c3)c(NC(=O)NC(C)(C)C)nc2n1 | ErbB4 | inhibitor |  |  |  | IC50 | > 1000 nM
O=C(c1ccc([N+](=O)[O-])cc1)N1CCC(n2cncc2-c2ccc(OS(=O)(=O)c3cccc4cnccc34)cc2)CC1 | P2X7 receptor | fluorescence |  |  |  | IC50 | 1.49 ± 0.17 nM
FC(F)(F)c1ccc(Nc2ncnc3sc(Nc4c(Cl)cccc4Cl)nc23)cc1 | TRPV1 | calcium flux, antagonist | HEK293 | with: capsaicin |  | IC50 | 12 nM
Oc1ccc(/C=C/c2cc(O)cc(O)c2)cc1 | cyclooxygenase |  |  |  |  | IC50 | 1100 nM
Nc1cc(C(F)(F)F)c(-c2nc(N3CCOCC3)nc(N3CCOCC3)n2)cn1 | STK26 (Homo sapiens, UniProt Q9P289) | enzyme activity |  | 10 µM | relative to: untreated | remaining activity | 56%
COc1ccc2c(c1)CCC(NC(=O)Nc1cccc3cnccc13)C2Cc1cccc(Cl)c1 (centres unmarked) | TRPV1 | calcium flux, antagonist | HEK293 | with: capsaicin |  | IC50 | 13 nM
CN(C/C=C/C(=O)N1CCC[C@@H](n2nc(-c3ccc(Oc4ccccc4)cc3)c3c(N)ncnc32)C1)CCCNC(=O)CNc1cccc2c1C(=O)N(C1CCC(=O)NC1=O)C2=O (some centres unmarked) | BTK | target engagement, NanoBRET | HEK-293T expressing BTK-NanoLuc | 2 h, with: tracer 1 µM |  | IC50 | 130 nM
C[C@H]1COCCN1c1nc(-c2cnc(N)cc2C(F)F)nc(N2CCOCC2)n1 | HCT-116 |  |  |  |  | GI50 | 574 nM
FC(F)(F)c1ccc(Nc2ccnc3cc(-c4ncccc4C(F)(F)F)ccc23)nc1 | TRPV1 | calcium flux, antagonist | HEK293 | with: capsaicin |  | IC50 | 1.65 nM
Nc1ncnc2c1ncn2[C@@H]1O[C@H](COP(=O)(O)CP(=O)(O)OP(=O)(O)O)[C@@H](O)[C@H]1O | P2X purinergic receptor | radioligand binding |  |  |  | IC50 | 82 nM
CCCCCCOC(=O)/C=C/c1ccc(O)c(O)c1 | xanthine oxidase | inhibitor |  |  |  | IC50 | 19000 ± 1000 nM
COc1ccc2c(c1)CCC(NC(=O)Nc1cccc3cnccc13)C2Cc1ccc(C#N)cc1 (centres unmarked) | TRPV1 | calcium flux, antagonist | HEK293 | with: capsaicin |  | IC50 | 21 nM
CO[C@@H]1COCC[C@@H]1N[C@@H]1C[C@H]2CCC[C@@]2(C(=O)N2C[C@@H]3C[C@H]2CN3c2cc(C(F)(F)F)ccc2C)C1 | CCR2 |  |  | 3D-QSAR training set |  | IC50 | 106 nM
CC(C)(C)c1ccc(NC(=O)c2ccc(-c3ncccc3C#N)cc2)cc1 | TRPV1 | calcium flux, antagonist | HEK293 | with: capsaicin |  | IC50 | 30 nM
CNC(C)C1CCC(N)C(OC2C(N)CC(N)C(OC3OCC(C)(O)C(NC)C3O)C2O)O1 (centres unmarked) | Klebsiella pneumoniae |  | clinical isolate RKI-No_93/10 |  |  | MIC | > 8 µg/mL
